Measurements from different studies.
Each numbered part is a random draw from the data of one study; scales do not carry over between parts. Substitutions count along the parent as printed.

Study 1
Target: ABI1, truncated, D143A, DHFR fusion (Arabidopsis thaliana)
Method: DHFR PCA, deep sequencing
Medium: yeast
Setting: methotrexate growth selection, single substitutions
Added: (+)-ABA 2500 µM
Baseline: wild-type fitted maximum
Reading: higher = stronger binding
Parent: PYL1, truncated, DHFR fusion (Arabidopsis thaliana); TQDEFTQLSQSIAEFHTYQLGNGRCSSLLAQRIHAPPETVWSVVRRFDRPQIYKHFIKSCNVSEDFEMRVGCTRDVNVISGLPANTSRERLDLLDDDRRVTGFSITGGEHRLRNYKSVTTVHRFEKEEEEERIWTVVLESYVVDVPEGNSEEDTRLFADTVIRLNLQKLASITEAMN; partner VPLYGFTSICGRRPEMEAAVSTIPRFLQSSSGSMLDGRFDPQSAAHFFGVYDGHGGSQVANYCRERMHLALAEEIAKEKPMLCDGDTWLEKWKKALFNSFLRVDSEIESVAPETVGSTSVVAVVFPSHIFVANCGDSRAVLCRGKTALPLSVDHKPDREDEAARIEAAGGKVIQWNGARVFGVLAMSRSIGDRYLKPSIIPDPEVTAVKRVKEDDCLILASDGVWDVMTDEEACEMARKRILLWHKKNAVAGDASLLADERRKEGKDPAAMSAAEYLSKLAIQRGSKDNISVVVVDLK
Variant	relative binding score
R113F	105%
G21N	99.8%
V43F	88.3%
N85I	97.6%
E67S	95%
L169K	-4%
E127W	97.6%
L164D	57.8%
Y115L	83.2%
T173S	96.5%
N77D	93.2%
R69Q	97.7%
E64C	92.9%
R49W	81.2%
L166R	3.04%
C60V	97%
Q51M	105%
I33A	73.2%
E174I	91%
S140P	-0.00983%
I33D	-9.64%
S140L	12%
R46E	94%
E130R	105%
T6P	110%

Study 2
Target: CCNE1, cyclin fold, Cln2 fusion (human)
Method: yeast growth competition, sequencing
Medium: yeast
Setting: strong parent motif
Baseline: not given
Reading: higher = stronger binding
Parent: PPP1R3F docking peptide (human); VAPRRVLFADEAL; partner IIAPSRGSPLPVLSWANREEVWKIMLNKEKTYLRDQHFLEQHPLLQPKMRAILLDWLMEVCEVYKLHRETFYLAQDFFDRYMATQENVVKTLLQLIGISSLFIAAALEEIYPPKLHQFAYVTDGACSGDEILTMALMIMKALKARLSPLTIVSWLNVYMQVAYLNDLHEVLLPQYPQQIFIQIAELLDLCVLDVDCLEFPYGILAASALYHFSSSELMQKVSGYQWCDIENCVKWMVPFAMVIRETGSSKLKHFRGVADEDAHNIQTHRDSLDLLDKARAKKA
Variant	normalised enrichment score
E11A	2.25
F8A	-0.673
V1A	2.45
R5K	1.35
P3A	5.95
V6A	0.656
F8L	0.413
R5A L7A	-0.323

Study 3
Target: CDC34 UBC core domain (UniProt P49427)
Method: yeast two-hybrid
Medium: yeast
Setting: mostly zero background
Baseline: not given
Reading: higher = stronger interaction
B1: ZNRF4 RING domain (UniProt Q8WWF5); chain VRTFTWHNDLCAICLDEYEEGDQLKILPCSHTYHCKCIDPWFSQAPRRSCPVCKQSVAATEDSF
B2: RUFY1 RING domain (UniProt Q96T51); chain QALKGHAWLKDDEATHCRQCEKEFSISRRKHHCRNCGHIFCNTCSSNELALPSYPKPVRVCDSCHTLLLQRCSSTAS
B3: ARIH2 RING domain (UniProt O95376); chain HVPTSHPPHHCAVCMQFVRKENLLSLACQHQFCRSCWEQHCSVLVKDGVGVGVSCMAQDCPLRTPEDFVF
B4: VPS8 RING domain (UniProt Q8N3P4); chain TRGLNPKQDYCSICLQQYKRRQEMADEIIVFSCGHLYHSFCLQNKECTVEFEGQTRWTCYKCSSSNKVGKLSE
B5: TRIM11 RING domain (UniProt Q96F44); chain LSTNLQEEATCAICLDYFTDPVMTDCGHNFCRECIRRCWGQPEGPYACPECRELSPQRNLRP
B6: RNF103 RING domain (UniProt O00237); chain WPADMLHCTECVVCLENFENGCLLMGLPCGHVFHQNCIVMWLAGGRHCCPVCRWPSYKKKQPY
B7: MARCHF1 RING domain (UniProt Q8TCQ1); chain TAPRSQSRLSVCPSTQDICRICHCEGDEESPLITPCRCTGTLRFVHQSCLHQWIKSSDTRCCELCKYDFIMETKLKPLRKWE
B8: MID2 RING domain (UniProt Q9UJV3); chain KMETLESELTCPICLELFEDPLLLPCAHSLCFSCAHRILVSSCSSGESIEPITAFQCPTCRYVISLNHRGL
B9: BFAR RING domain (UniProt Q9NZS9); chain GPQISVSEFSCHCCYDILVNPTTLNCGHSFCRHCLALWWASSKKTECPECREKWEGFPKVS
Construct (chain): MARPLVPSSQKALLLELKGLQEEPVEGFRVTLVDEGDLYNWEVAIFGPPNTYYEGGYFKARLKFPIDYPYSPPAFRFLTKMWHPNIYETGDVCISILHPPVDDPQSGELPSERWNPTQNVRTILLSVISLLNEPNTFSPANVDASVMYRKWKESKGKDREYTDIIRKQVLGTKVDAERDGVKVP
Sequence	lacZ reporter activity
LVKDFNPYITCYICKGYLIKPTTVTECLHTFCKTCIVQHFEDSNDCPRCGNQVHETNPLE (PCGF5 RING domain (UniProt Q86SE9))	0
B1 (ZNRF4 RING domain)	0
EIKEYKARLTCPCCNTRKKDAVLTKCFHVFCFECVRGRYEARQRKCPKCNAAFGAHDFHR (RNF40 RING domain (UniProt O75150))	0
B2 (RUFY1 RING domain)	0
ASPKIFQKTKCSICNSALELPSVHFLCGHSFHQHCFESYSESDADCPTCLPENRKVMDMI (VPS11 RING domain (UniProt Q9H270))	0
FDPPLESKYECPICLMALREAVQTPCGHRFCKACIIKSIRDAGHKCPVDNEILLENQLFP (TRAF6 RING domain (UniProt Q9Y4K3))	0
B3 (ARIH2 RING domain)	0
B4 (VPS8 RING domain)	0
B5 (TRIM11 RING domain)	0
LEALSSDFLACKICLEQLRAPKTLPCLHTYCQDCLAQLADGGRVRCPECRETVPVPPEGV (TRIM56 RING domain (UniProt Q9BRZ2))	0
B6 (RNF103 RING domain)	0
B7 (MARCHF1 RING domain)	0
B8 (MID2 RING domain)	0
B9 (BFAR RING domain)	0
FAEQPSVKLCCQLCCSVFKDPVITTCGHTFCRRCALKSEKCPVDNVKLTVVVNNI (TRAF7 RING domain (UniProt Q6Q0C0))	0

Study 4
Target: RNA binding protein fox-1 homolog 2, RRM domain, GST-SBP tag (RBFOX2, Homo sapiens, UniProt O43251-10, residues 100-194)
Method: RNA Bind-n-Seq
Molecule type: RNA
Medium: in vitro
Tested at: 365 nM
Setting: natural RNA segment, single round, ends assumed
Baseline: no-protein control
Reading: higher = stronger binding
Constant ends, left off below: GGGAGUUCUACAGUCCGACGAUC … UGGAAUUCUCGGGUGCCAA
Construct (chain): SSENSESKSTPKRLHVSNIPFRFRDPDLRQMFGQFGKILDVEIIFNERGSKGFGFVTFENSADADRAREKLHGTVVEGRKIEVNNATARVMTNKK
Strand	RBNS enrichment (R)
UUCCAAAAGGGGGUUCUCCAUUUUUUGUAGUUUUGUCUAAAUUUUUAAUGACCAUUUCCUGGAAUCAGUUUAUUAUACUGAAAACUGGGGGUGGGAGUAGGGAGCUAGUU	0.614
AGUUUCUGAAGAUUUUAUUAUCAUAGAUACUUGUUUUGGUUUUGUGUAUCUGUACUCUCUGCAGAUGGUCCAAAAUUGUAAUGGAGUCUGUAUUAGAAGAAAAUAAGGGU	1.11
AAAUUAUGCAGGUGAUAACUUUAUGGUUUGGGACUGUUUAUGGGCUCUUUUAAGUGAAUUUUCAAAUGAAAUGAACUAUGCUUAUUGCUGGCACAUUGAUCCCAUUUCUG	0.621
GGUUAGCCACCUGGUGAUUUUGUCUCUAGUGAAACUGUGUUUGCCGAUAAUCAUCCACAUAGCCACCUCUGUCCUCGCAGUUUGGAUGCCUUUUUUUGACACCUGCGCUA	0.371
GCAGCUAAGCUGAAAGUGCCCAGCAGGUGCAAAGGGGAAAAAGAACAAGGUUUGAGGAGGAAGUAGUUGCCUGUCCCAGCCUCAUCUGCUGAGCUCUUUAAGGAAGGUGG	1.53
AUGGACCCCAGAGCUUUGGGCCCAGGGUGAGGGCAAGGGGAACUCUUCAGCCCCUUGCCUAGAGAGAUGGCCUGAUGGCCUUUUGUGCUUCCCCCCAGAGGGCAGUGGGG	0.566
CACAGACAUGGUGUCUGCAGUUUCCCAGCUGUCCGACUCCCCGGACACCACAGAGGAAGCCACCCCAGUUCAGGAGGUAGAGGGUGGCAUGCUAGAUACGGAAGAACAGG	0.803
GAUCCAUGGAAUAAUAUGUAAUUCUUGUUUUCCUUGUCUUUUAGUCCAGUUUUUCUUUUUCCCUCUCAUAUAUUUGUAACCUGGGUCCUAAACUGACUGAAGAGUUUGUC	0.28
AUAAUCAUGAGUCAUGCAGAGCCAAGAAAAGAAAUAUAUUAUGGUAUAUGUAAAGUGAUAUUUCGCUCUACAAGUUUGGCCUUAAUUAAACUCAUGAAUUAUAGGCAUUU	0.375
UGUUGCCACAGUUGGGAGAUUUCUUCUUAAUCCUGAUUUUCUUGGUAAGCUUUUUUACUUUAUUAUCUCUAUAAUUUAUUAUCUCUAUCCAUAUUUGUGGAUCGGGUAGU	0.438
UCUAAGUUGUCCAGGUGCUCAGCUCCUGUGUGCCUGGAUGAUGAGAGGGCUCUAGGGCUCUUUCAGUCAGAGACUUACAUUGAGGUGGGGUGAGGGUCAGAGAAAGUUCU	0.62
UGUCUCUAUGAGACAGCUAGUCCAUUACUGUUACUAUUGUAUUACUGUCAUGUUCUUUACAUGUCACUUGUCAUUUUUAUUUGUGAAAAAUAAAAAGAUAAUUUAUUCAC	0.365

Study 5
Target: Fragile X messenger ribonucleoprotein 1, C-terminal low-complexity region (Fmr1, Mus musculus, UniProt P35922)
Method: RNA Bind-n-Seq
Molecule type: RNA
Medium: in vitro
Tested at: 200 nM
Setting: whole 134-nt RNA, ends assumed
Added: 150 mM KCl
Baseline: input library
Reading: higher = stronger binding
Constant ends, left off below: GGGAGUUCUACAGUCCGACGAUC … UGGAAUUCUCGGGUGUCAAGG
Strand	log2 enrichment
ACCAUAAAGGUGGGCAUCUUUGGGAAGUGGGGCAAGGGGGGGAUAGGGAGGGGGGUAACACUUUGGGAACAGGUGGUCCCAGGUCGUUUC	0.837
AGUCCUGUGCUACACAUCGUAUGUACCGAAUCGGGUUUUUGGGAGGGUUUUUUUGGGAAAGUAUUAUGUUACGCCGUUCGGAUCUGCACU	0.403
CACAGACAACACGCACCCACACAGACACAGAGGGAAGGGGUUGGGAUGGGGACAGGGUGAAAAGCAGGGCGGGGUAGGACCCCAGCCCCU	1.06
UCCUGUGCUACACAUCGUAUGUACCGAAUCGGGGAAAAAAAGGGGAGGGGUUUUUGGGGAAAGUAUUAUGUUACGCCGUUCGGAUCUGCA	0.543
CCUGUGCUACACAUCGUAUGUACCGAAUCGGGGUUUUUUUGGGGAGGGGAAAAAAAGGGGAAAGUAUUAUGUUACGCCGUUCGGAUCUGC	0.0426
UGGCCCUGGUGGCAUGCUGGGAGGAAGAGGUGGCCUCAUGGAUCGUGGUGGUCCCGGUGGAAUGUUCAGAGGUGGCCGUGGUGGAGACAG	-0.0671
CUCAAGUCCUGUGCUACACAUCGUAUGUACCGAAUCGGUUUUUGGUUUGGAGGAAAGUAUUAUGUUACGCCGUUCGGAUCUGCACUUCCA	-0.426
UUCCUCAAGUCCUGUGCUACACAUCGUAUGUACCGAAUCGGCGGCGGGCGGAAAGUAUUAUGUUACGCCGUUCGGAUCUGCACUUCCAGC	-0.0961
AAGUCCUGUGCUACACAUCGUAUGUACCGAAUCGGGGAAAAGGGGAAAAGGAAAAGGAAAGUAUUAUGUUACGCCGUUCGGAUCUGCACU	-0.127
GUCCUGUGCUACACAUCGUAUGUACCGAAUCGGGGAAAGGGGUUUUUUUGGGGUGGGGAAAGUAUUAUGUUACGCCGUUCGGAUCUGCAC	0.553
CAAGUCCUGUGCUACACAUCGUAUGUACCGAAUCGGCCCCGGCCCCGGCCCCGGGAAAGUAUUAUGUUACGCCGUUCGGAUCUGCACUUC	-0.429
CCUGUGCUACACAUCGUAUGUACCGAAUCGGGGUUUUUGGGGUUUGGGGAAAAAAAGGGGAAAGUAUUAUGUUACGCCGUUCGGAUCUGC	0.166
GCAGGAAGUAAAAACAAAUGGAAAUGCUUCGGCUAGUGGCAGGGGUGGGGGUUGCUAAGGAAAGGGUGGGAUGGGAGUGGGUAAAGAGUU	0.512
UGGCCCUGGUGGCAUGCGGGGAGGAAGAGGUGGCCUUAUGGAUCGUGGUGGUCCCGGUGGAAUGUUCAGAGGUGGCCGUGGUGGAGACAG	0.268
